Measurements pooled from the literature.
± gives the spread as reported.

Structure (SMILES) | test | test system | setting | endpoint | result
CN([O-])C(=O)CN1CCN(CC(=O)N(C)[O-])CCN(CC(=O)N(C)[O-])CC1.[89Zr+4] | radio-TLC | human serum | 7 days, run 2 | intact complex | 97.7%
C[N+](C)(CCOCCOCCOCCNC(=S)Nc1ccc(C[C@H]2CN(CC(=O)[O-])CCN(CC(=O)[O-])CCN2CC(=O)[O-])cc1)C[c-]1cccc1.[64Cu+2].[Fe+2].c1cc[cH-]c1 | radio-HPLC | human plasma | 240 min, 37 °C | intact compound | 76.8 ± 0.5%
CN([O-])C(=O)CN1CCNCCN(CC(=O)N(C)[O-])CC1.[89Zr+4] | radio-TLC | human serum | 3 days, run 2 | intact complex | 100%
CC(=O)N([O-])CCCCCNC(=O)CCC(=O)N([O-])CCCCCNC(=O)CCC(=O)N([O-])CCCCCN.[89Zr+4] | radio-TLC | aqueous buffer | 1 d, pH 7.2, 37 °C, 89Zr-labelled complex, together with: CaCl2 10-fold excess | intact complex | 98.3 ± 0.9%
Cc1ccc(C(C)C)cc1.O=C(N=P12CN3CN(CN(C3)C1)C2)c1[c-]cccc1.[Cl-].[Ru+2] | – | DMSO-d6 | 1 week | intact compound | 50%
COc1ccc2c(c1)C(C)(C)C(/C=C/C1=C(Oc3ccc(C(=O)NCCCCOc4cc(CN(Cc5ccccn5)Cc5ccccn5)cc(CN(Cc5ccccn5)Cc5ccccn5)c4)cc3)C(=C/C=C3/N(CCCCS(=O)(=O)[O-])c4ccc(OC)cc4C3(C)C)CCC1)=[N+]2CCCCS(=O)(=O)[O-].O=[N+]([O-])[O-].O=[N+]([O-])[O-].[99Tc+].[C-]#[O+].[C-]#[O+].[C-]#[O+].[Zn+2] | radio-TLC | mouse serum | 18 h, 37 °C | intact compound | 97.1%
CN(O)C(=O)CCC(=O)NCCCN(CCCCN(CCCNC(=O)CCC(=O)N(C)O)C(=O)CCC(=O)N(C)O)C(=O)CCC(=O)N(C)O.[89Zr] | radio-TLC | aqueous buffer | 5 d, pH 7, 37 °C, 89Zr-labelled complex, together with: DTPA 100-fold excess | intact complex | 98.3 ± 0.5%
C[N+](C)(CCOCCOCCOCCOCCOCCOCCOCCNC(=S)Nc1ccc(CC2CN(CC(=O)[O-])CCN(CC(=O)[O-])CCN2CC(=O)[O-])cc1)C[c-]1cccc1.[64Cu+2].[Fe+2].c1cc[cH-]c1 (stereo not shown) | radio-HPLC | PBS | 240 min, pH 7.4 | intact compound | 80.4 ± 3%
CN([O-])C(=O)CN1CCN(CC(=O)N(C)[O-])CCN(Cc2ccccn2)CC1.[89Zr+4] | radio-TLC | human serum | 7 days, run 2 | intact complex | 92.2%
O=C([O-])CN1CCN(CC(=O)[O-])CCN(CC(CCCc2ccccc2[N+](=O)[O-])N(CC(=O)[O-])CC(=O)[O-])CC1.[90Y+3] (stereo not shown) | TLC | human serum | 183 h, pH 7, 37 °C | intact radiolabelled complex | 99.5 ± 0.4%
